Published values gathered from unrelated publications.
Protocols differ between the studies behind these lines. Numbers after ± are the reported error.

CC(=O)N[C@H](CCCCN)C(=O)N[C@H](CC(C)C)C(=O)N[C@@H](CCN)C(=O)N[C@H](CO)C(=O)N[C@H](CC(C)C)C(=O)N[C@H](CC(C)C)C(=O)N[C@@H](CCN)C(=O)N[C@@H](C(=O)N[C@H](CC(C)C)C(=O)N[C@H](CO)C(=O)N[C@@H](CCN)C(=O)N[C@H](C)C(=O)N[C@H](C)C(=O)N[C@H](C)C(=O)N[C@H](C)C(=O)N[C@H](C)C(=O)N[C@H](CC(C)C)C(=O)N[C@@H](CCN)C(=O)N[C@@H](C(=O)N[C@H](CC(C)C)C(=O)N[C@H](CC(C)C)C(=O)N[C@@H](CCN)C(=O)N[C@H](C)C(=O)N[C@H](CC(C)C)C(=O)N[C@H](CO)C(=O)N[C@@H](CCN)C(N)=O)[C@H](C)O)[C@H](C)O
retention time (RP-HPLC C8; pH 2, 25 °C, hydrophobicity measure): 158 min

CC[C@H](C)[C@H](NC(=O)[C@H](CCCNC(=N)N)NC(=O)[C@H](CO)NC(=O)[C@H](CC(C)C)NC(=O)[C@H](Cc1ccccc1)NC(=O)[C@H](Cc1ccccc1)NC(=O)[C@@H](N)Cc1ccccc1)C(=O)N[C@@H](Cc1ccccc1)C(N)=O
retention time (reverse-phase HPLC, C18; acetonitrile gradient 5-95%, 0.1% TFA): 14.3 min

CCCC(=O)N[C@@H](Cc1ccccc1)C(=O)N[C@H](C(=O)NCC(=O)N[C@H](C(=O)N[C@@H](CC(C)C)C(=O)N[C@H](C(=O)N1CCC[C@H]1C(=O)N[C@@H](CC(C)C)C(=O)N[C@@H](C)C(=O)N[C@@H](CC(C)C)C(=O)NCC(=O)N[C@@H](C)C(=O)N[C@@H](CC(C)C)C(=O)N[C@H](C(=O)N[C@@H](CCCCN)C(=O)N[C@@H](CC(C)C)C(=O)N[C@@H](Cc1ccccc1)C(=O)N[C@@H](CCCCN)C(N)=O)[C@@H](C)O)[C@@H](C)CC)[C@@H](C)O)[C@@H](C)CC
retention time (reversed-phase HPLC; hydrophobicity measure): 11.8 min

CC(=O)N[C@H](CCCCN)C(=O)N[C@H](CC(C)C)C(=O)N[C@@H](CN)C(=O)N[C@H](CO)C(=O)N[C@H](CC(C)C)C(=O)N[C@H](CC(C)C)C(=O)N[C@@H](CN)C(=O)N[C@@H](C(=O)N[C@H](CC(C)C)C(=O)N[C@H](CO)C(=O)N[C@@H](CN)C(=O)N[C@H](C)C(=O)N[C@H](C)C(=O)N[C@H](C)C(=O)N[C@H](C)C(=O)N[C@H](C)C(=O)N[C@H](CC(C)C)C(=O)N[C@@H](CN)C(=O)N[C@@H](C(=O)N[C@H](CC(C)C)C(=O)N[C@H](CC(C)C)C(=O)N[C@@H](CN)C(=O)N[C@H](C)C(=O)N[C@H](CC(C)C)C(=O)N[C@H](CO)C(=O)N[C@@H](CN)C(N)=O)[C@H](C)O)[C@H](C)O
retention time (RP-HPLC C8; pH 2, 25 °C, hydrophobicity measure): 172 min

C[C@H](NC(=O)[C@H](CCCNC(=N)N)NC(=O)[C@H](Cc1c[nH]c2ccccc12)NC(=O)[C@H](CCC(N)=O)NC(=O)[C@H](Cc1c[nH]c2ccccc12)NC(=O)[C@@H](N)CCCNC(=N)N)C(=O)N[C@@H](CCC(N)=O)C(=O)N[C@@H](Cc1c[nH]c2ccccc12)C(=O)N[C@@H](CCCNC(=N)N)C(N)=O
retention time (RP-HPLC C18; hydrophobicity measure): 5.6 min

CC[C@H](C)[C@H](NC(=O)[C@H](C)NC(=O)[C@H](CCCCN)NC(=O)[C@H](CC(C)C)NC(=O)[C@H](C)NC(=O)[C@@H](NC(=O)[C@H](Cc1c[nH]cn1)NC(=O)[C@H](CC(C)C)NC(=O)[C@@H](NC(=O)[C@@H](NC(=O)[C@H](CCCCN)NC(=O)[C@H](CCCCN)NC(=O)[C@H](C)NC(=O)[C@H](CO)NC(=O)[C@H](CCCCN)NC(=O)[C@H](Cc1ccccc1)NC(=O)[C@@H](NC(=O)[C@H](CCCCN)NC(=O)[C@H](CC(C)C)NC(=O)[C@H](Cc1ccccc1)NC(=O)[C@H](CO)NC(=O)[C@H](CCCCN)NC(=O)[C@H](Cc1c[nH]c2ccccc12)NC(=O)[C@H](CCCCN)NC(C)=O)[C@@H](C)O)[C@@H](C)O)C(C)C)[C@@H](C)O)C(=O)N[C@@H](CO)C(=O)N[C@@H](CO)C(N)=O
retention time (RP-HPLC; Zorbax 300 SB-C8 column; 30 °C): 30.3 min

CCCCCCCCCCCCCCCCCC(=O)N[C@@H](Cc1ccccc1)C(=O)N[C@H](C(=O)NCC(=O)N[C@H](C(=O)N[C@@H](CC(C)C)C(=O)N[C@H](C(=O)N1CCC[C@H]1C(=O)N[C@@H](CC(C)C)C(=O)N[C@@H](C)C(=O)N[C@@H](CC(C)C)C(=O)NCC(=O)N[C@@H](C)C(=O)N[C@@H](CC(C)C)C(=O)N[C@H](C(=O)N[C@@H](CCCCN)C(=O)N[C@@H](CC(C)C)C(=O)N[C@@H](Cc1ccccc1)C(=O)N[C@@H](CCCCN)C(N)=O)[C@@H](C)O)[C@@H](C)CC)[C@@H](C)O)[C@@H](C)CC
retention time (reversed-phase HPLC; hydrophobicity measure): 13.2 min

Ac-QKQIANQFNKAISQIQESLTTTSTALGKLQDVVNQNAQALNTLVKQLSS-NH2 (N-acetyl, C-amide)
retention time (size-exclusion HPLC; phosphate buffer 50 mM, NaCl 100 mM; 0.2 mM, oligomerization state): 43.2 min

CC[C@H](C)[C@H](NC(=O)[C@H](CCCCN)NC(=O)[C@H](CCCCN)NC(=O)[C@@H](NC(=O)[C@@H](NC(=O)[C@H](CC(=O)O)NC(=O)[C@H](Cc1ccccc1)NC(=O)[C@H](CC(C)C)NC(=O)CN)[C@@H](C)CC)[C@@H](C)CC)C(=O)N[C@@H](C)C(=O)N[C@@H](CCC(=O)O)C(=O)N[C@@H](CO)C(=O)N[C@@H](Cc1ccccc1)C(N)=O
retention time (RP-HPLC C18; hydrophobicity): 23.93 ± 0.01 min

CC[C@H](C)[C@@H]1NC(=O)[C@@H]2CSSC[C@H](NC(=O)[C@@H](NC(=O)CN)[C@@H](C)O)C(=O)N[C@@H](CC(N)=O)C(=O)N[C@@H]([C@@H](C)O)C(=O)N3CCC[C@H]3C(=O)NCC(=O)N[C@H]3CSSC[C@H](NC(=O)[C@H](CCSC)NC(=O)[C@H](CC(C)C)NC(=O)[C@H](CCCNC(=N)N)NC(=O)CNC(=O)CNC(=O)[C@H](CC(=O)O)NC1=O)C(=O)NCC(=O)N[C@@H](CCC(=O)O)C(=O)N[C@@H]([C@@H](C)O)C(=O)N[C@H](C(=O)N[C@H](C(=O)NCC(=O)O)C(C)C)CSSC[C@H](NC(=O)[C@H]([C@@H](C)O)NC3=O)C(=O)N[C@@H](CO)C(=O)N[C@@H](Cc1c[nH]c3ccccc13)C(=O)N1CCC[C@H]1C(=O)N[C@@H](C(C)C)C(=O)N2
retention time (reversed-phase HPLC C18; acetonitrile gradient 5 to 51% over 36 min): 27 min

Some of these lines once more:
CC[C@H](C)[C@@H]1NC(=O)[C@@H]2CSSC[C@H](NC(=O)[C@@H](NC(=O)CN)[C@@H](C)O)C(=O)N[C@@H](CC(N)=O)C(=O)N[C@@H]([C@@H](C)O)C(=O)N3CCC[C@H]3C(=O)NCC(=O)N[C@H]3CSSC[C@H](NC(=O)[C@H](CCSC)NC(=O)[C@H](CC(C)C)NC(=O)[C@H](CCCNC(=N)N)NC(=O)CNC(=O)CNC(=O)[C@H](CC(=O)O)NC1=O)C(=O)NCC(=O)N[C@@H](CCC(=O)O)C(=O)N[C@@H]([C@@H](C)O)C(=O)N[C@H](C(=O)N[C@H](C(=O)NCC(=O)O)C(C)C)CSSC[C@H](NC(=O)[C@H]([C@@H](C)O)NC3=O)C(=O)N[C@@H](CO)C(=O)N[C@@H](Cc1c[nH]c3ccccc13)C(=O)N1CCC[C@H]1C(=O)N[C@@H](C(C)C)C(=O)N2
retention time (reversed-phase HPLC C18; acetonitrile gradient 5 to 51% over 36 min): 27 min
